Measured values pooled from the literature.
Compare with care: the assays were run in different laboratories. Values joined by “and” are separate records of one study, mostly repeats; a detail may differ. Numbers after ± are the reported error.

| SMILES | test | test system | setting | tissue uptake |
| --- | --- | --- | --- | --- |
| O=C(O)CCCOc1ccc([18F])cc1-c1cc(-c2ccccc2C(F)(F)F)n(-c2ccccc2)n1 |  | mouse, bone | intravenous, dose not given, 5 min | 1.52 ± 0.21 %ID/g |
| COc1cccc(OC)c1-c1cc(C(=O)NC2(C(=O)O)C3CC4CC(C3)CC2C4)nn1-c1ccc(C(=O)N(C)CCCN(C)C(=O)[C@H](CCCCNC(=O)[C@H](CC(C)C)NC(=O)C2OC2C(=O)O)NC(=O)CN2CCN(CC(=O)[O-])CCN(CC(=O)[O-])CCN(CC(=O)[O-])CC2)cc1C(C)C.[177Lu+3] (mixture of isomers) |  | mouse, HT-29 xenograft, heart | 4 h post injection | 0.47 %ID/g |
| COc1ccc(Nc2nc(Nc3ccc(OCCOCCOCC[18F])cc3)ncc2Br)cc1 |  | ICR mouse, S180 sarcoma-bearing, blood | intravenous, 370 kBq in 100 µL, 30 min | 2.41 ± 0.15 %ID/g |
| COc1ccc2c(c1)C(C)(C)C(/C=C/C1=C(Oc3ccc(C(=O)NCCCCOc4cc(CN(Cc5ccccn5)Cc5ccccn5)cc(CN(Cc5ccccn5)Cc5ccccn5)c4)cc3)C(=C/C=C3/N(CCCCS(=O)(=O)[O-])c4ccc(OC)cc4C3(C)C)CCC1)=[N+]2CCCCS(=O)(=O)[O-].O=[N+]([O-])[O-].O=[N+]([O-])[O-].[99Tc+].[C-]#[O+].[C-]#[O+].[C-]#[O+].[Zn+2] |  | BALB/c mouse, Staphylococcus aureus myositis, heart | 12 h | 2.03 %ID/g and 1.76 %ID/g and 3.08 %ID/g and 0.75 %ID/g |
| CC[C@H](C)[C@H](NC(=O)C[C@H](NC(=O)CN1CCN2CCN(CC1)CC(=O)[O][Al]([18F])[O]C(=O)C2)C(=O)O)C(=O)N[C@H]1CCc2cccc3c2N(C1=O)[C@H](C(=O)NCc1cn[nH]n1)C3 |  | C57BL/6J mouse, MC-38 tumour, blood | 30 min post injection, PBS treated | 1.69 ± 0.25 %ID/g |
| CCCC[C@H](NC(=O)CNC(=O)CNC(=O)[C@H](CCCCNC(=O)C(C)c1ccc(CC(C)C)cc1)NC(=O)CN1CCN(CC(=O)O)CCN(CC(=O)O)CCN(CC(=O)O)CC1)C(=O)N[C@H]1CC(=O)NCCCC[C@@H](C(N)=O)NC(=O)[C@H](Cc2c[nH]c3ccccc23)NC(=O)[C@H](CCCNC(=N)N)NC(=O)[C@@H](Cc2ccccc2)NC(=O)[C@H](Cc2c[nH]cn2)NC1=O (stereo partly drawn) [lutetium-177 labelled] |  | C57 mouse, intestines | 2 h | 2.77 ± 0.88 %ID |
| COc1cccc(OC)c1-c1cc(C(=O)NC2(C(=O)O)C3CC4CC(C3)CC2C4)nn1-c1ccc(C(=O)NCCNC(=O)[C@H](CCCCNC(=O)[C@H](CC(C)C)NC(=O)C2OC2C(=O)O)NC(=O)CN2CCN(CC(=O)[O-])CCN(CC(=O)[O-])CCN(CC(=O)[O-])CC2)cc1C(C)C.[177Lu+3] (mixture of isomers) |  | mouse, HT-29 xenograft, spleen | 72 h post injection | 0.49 %ID/g |
| O=C([O-])CN1CCN(CC(=O)[O-])CCN(CC(=O)[O-])CC1.[44Sc+3] |  | BALB/c mouse, small intestine | intravenous, 1 h | 0.17 ± 0.08 %ID/g |
| N#C[C@@H]1CC(F)(F)CN1C(=O)CNC(=O)c1ccnc2c(NC(=O)[C@H](CCCCNC(=O)CCOCCOCCOCCOCCOCCOCCNC(=O)CN3CCN(CC(=O)[O-])CCN(CC(=O)[O-])CCN(CC(=O)[O-])CC3)NC(=O)CCCc3ccc(I)cc3)cccc12.[177Lu+3] |  | mouse, U-87 MG tumour xenograft, lung | 4 h | 5.22 ± 1.51 %ID/g |
| CCCC[C@H](NC(=O)CNC(=O)CNC(=O)[C@H](CCCCNC(=O)[C@H](CC(=O)O)NC(=O)C(C)c1ccc(CC(C)C)cc1)NC(=O)CN1CCN(CC(=O)O)CCN(CC(=O)O)CCN(CC(=O)O)CC1)C(=O)N[C@H]1CC(=O)NCCCC[C@@H](C(N)=O)NC(=O)[C@H](Cc2c[nH]c3ccccc23)NC(=O)[C@H](CCCNC(=N)N)NC(=O)[C@@H](Cc2ccccc2)NC(=O)[C@H](Cc2c[nH]cn2)NC1=O (stereo partly drawn) [lutetium-177 labelled] |  | C57 mouse, kidneys | intravenous, 2 h, with: 10 µg NDP-MSH co-injection | 12.5 ± 0.96 %ID/g |
| O=C([O-])CN1CCN(CC(=O)O)CCN(CC(=O)[O-])CCN(CC(=O)NCC2CCC(C(=O)NC(Cc3ccc4ccccc4c3)C(=O)NCCCCC(NC(=O)NC(CCC(=O)O)C(=O)O)C(=O)O)CC2)CC1.[212Pb+2] (stereo not drawn) | measured: 212Pb | athymic mouse, C4-2 prostate xenograft, skull | intravenous, dose not given, 2 h | not detected |
| COc1cccc(OC)c1-c1cc(C(=O)NC2(C(=O)O)C3CC4CC(C3)CC2C4)nn1-c1ccc(C(=O)N(C)CCCN(C)CCCN(C)C(=O)[C@H](CCCCNC(=O)[C@H](CC(C)C)NC(=O)C2OC2C(=O)O)NC(=O)CN2CCN(CC(=O)[O-])CCN(CC(=O)[O-])CCN(CC(=O)[O-])CC2)cc1C(C)C.[177Lu+3] (mixture of isomers) |  | mouse, HT-29 xenograft, liver | 168 h post injection | 0.79 %ID/g |
| CN(Cc1ccccc1)C(=O)CN1CCN(CC(=O)[O-])CCN(Cc2cccc(C(=O)[O-])n2)CC1.[44Sc+3] |  | BALB/c mouse, small intestine | intravenous, 1 h | 2.28 ± 0.44 %ID/g |
| Cc1n[nH]c(C)c1CCCOc1cc(C(=O)NCCCCC(NC(=O)CN2CCN(CC(=O)[O-])CCN(CC(=O)[O-])CCN(CC(=O)[O-])CC2)C(=O)NCC2CCC(C(=O)NC(Cc3ccc4ccccc4c3)C(=O)NCCCCC(NC(=O)NC(CCC(=O)O)C(=O)O)C(=O)O)CC2)ccc1F.[68Ga+3] (stereo not drawn) | PET/CT | mouse 22Rv1 xenograft, salivary gland | 1 h | 2.5 ± 0.65 %ID/g |
| CN(Cc1ccccc1)C(=O)CN1CCN(CC(=O)[O-])CCN(CC(=O)[O-])CC1.[44Sc+3] |  | BALB/c mouse, large intestine | intravenous, 1 h | 0.31 ± 0.06 %ID/g |
| [11CH3]N1CCC(NC(=O)c2cc(-c3c(O)cc(O)cc3Oc3ccc([N+](=O)[O-])cc3)on2)CC1 |  | NMRI mouse, healthy, kidneys | intravenous, 5.5 MBq, 30 min | 5.2 ± 1.9 %ID |
| N#C[C@@H]1CC(F)(F)CN1C(=O)CNC(=O)c1ccnc2c(NC(=O)CCOCCOCCOCCOCCOCCOCCNC(=O)[C@H](CCCCNC(=O)CN3CCN(CC(=O)[O-])CCN(CC(=O)[O-])CCN(CC(=O)[O-])CC3)NC(=O)CCCc3ccc(I)cc3)cccc12.[177Lu+3] |  | mouse, U-87 MG tumour xenograft, spleen | 48 h | 0.4 ± 0.2 %ID/g |
| CN(Cc1ccccc1)C(=O)CN1CCN(CC(=O)[O-])CCN(CC(=O)N(C)Cc2ccccc2)CC1.[44Sc+3] |  | BALB/c mouse, large intestine | intravenous, 1 h | 0.26 ± 0.04 %ID/g |
| COc1ccc(Nc2nc(Nc3ccc(OCCOCC[18F])cc3)ncc2Br)cc1 |  | ICR mouse, S180 sarcoma-bearing, blood | intravenous, 370 kBq in 100 µL, 5 min | 6.17 ± 0.36 %ID/g |
| O=C([O-])CN1CCN(CC(=O)[O-])CCN(Cc2cccc(C(=O)[O-])n2)CC1.[44Sc+3] |  | BALB/c mouse, large intestine | intravenous, 1 h | 0.2 ± 0.05 %ID/g |
| COc1cccc(OC)c1-c1cc(C(=O)NC2(C(=O)O)C3CC4CC(C3)CC2C4)nn1-c1ccc(C(=O)N(C)CCOCCOCCN(C)C(=O)[C@H](CCCCNC(=O)[C@H](CC(C)C)NC(=O)C2OC2C(=O)O)NC(=O)CN2CCN(CC(=O)[O-])CCN(CC(=O)[O-])CCN(CC(=O)[O-])CC2)cc1C(C)C.[177Lu+3] (mixture of isomers) |  | mouse HT-29 xenograft, large intestine | 72 h post injection, biodistribution | 0.072 %ID/g |
